Published values gathered from unrelated publications.
Protocols differ between the studies behind these lines. ± marks the error that the study gave.

Structure (SMILES)	assay	test system	conditions	scale	endpoint	result
CC(C)C[C@@H](N)C(=O)NCC(=O)N[C@H](C)C(=O)N[C@H](CO)C(=O)N[C@H](Cc1c[nH]c2ccccc12)C(=O)N[C@H](Cc1c[nH]cn1)C(=O)N[C@H](CCCNC(=N)N)C(=O)N1CCC[C@@H]1C(=O)N[C@H](CC(=O)O)C(=O)N[C@H](CCCCN)C(=O)N[C@H](CS)C(=O)N[C@H](CS)C(=O)N[C@H](CC(C)C)C(=O)NCC(=O)N[C@H](Cc1ccc(O)cc1)C(=O)N[C@H](CCC(N)=O)C(=O)N[C@H](CCCCN)C(=O)N[C@H](CCCNC(=N)N)C(=O)N1CCC[C@@H]1C(=O)N[C@H](CC(C)C)C(=O)N1CCC[C@@H]1C(N)=O	LC-MS/MS	processed rat plasma	25 ng/mL, 4 h, 8 °C, autosampler storage	relative to: nominal	accuracy	86.9%
CC(C)[C@H](NC(=O)CNC(=O)[C@H](CCC(N)=O)NC(=O)[C@H](C)N)C(=O)O	–	healthy male volunteers	intravenous infusion, dose not given, experimental endotoxaemia, all doses	–	tolerability	not toxic
O=CN(CCCc1cn(-c2ccc(CN3CCOCC3)cc2)nn1)CCNc1ccnc2cc(Cl)ccc12	–	monkey cells	–	–	CC50	> 100 µM
CC(C)C[C@@H](NC(=O)[C@@H](CCCCN)NC(=O)CNC(=O)CNC(=O)[C@@H]1CSSC[C@H](N)C(=O)NCC(=O)N[C@@H](CCCNC(=N)N)C(=O)N[C@@H](CCCNC(=N)N)C(=O)N[C@@H](C)C(=O)NCC(=O)NCC(=O)N[C@@H](CO)C(=O)N1)C(=O)N[C@H](C)C(=O)N[C@H](CCCCN)C(=O)N[C@H](CC(C)C)C(=O)N[C@H](C)C(=O)N[C@H](CCCCN)C(=O)N[C@H](CCCCN)C(=O)N[C@H](CC(C)C)C(=O)N[C@H](C)C(=O)N[C@H](CCCCN)C(=O)N[C@H](CC(C)C)C(=O)N[C@H](C)C(=O)N[C@H](CCCCN)C(=O)O	–	cynomolgus monkey, plasma	intravenous, 3 mg/kg, infusion	–	AUC	8880 ng·h/mL
CC(C)(CCCC/C=C/CCCCCC(C)(C)C(=O)O)C(=O)O	–	beagle dog, plasma	intravenous, 5 mg/kg	–	half-life	26.2 h
CC[C@H](C)[C@H](NC(=O)CN)C(=O)N[C@@H](CCCNC(=N)N)C(=O)N[C@@H](CCCCN)C(=O)N[C@@H](Cc1c[nH]c2ccccc12)C(=O)N[C@@H](Cc1ccccc1)C(=O)N[C@@H](CCCCN)C(=O)N[C@@H](CCCCN)C(=O)N[C@@H](C)C(=O)N[C@@H](C)C(=O)N[C@@H](Cc1c[nH]cn1)C(=O)N[C@H](C(=O)NCC(=O)N[C@@H](CCCCN)C(=O)N[C@@H](CCCCN)C(=O)N[C@H](C(=O)NCC(=O)N[C@@H](CCCCN)C(=O)N[C@H](C(=O)N[C@@H](C)C(=O)N[C@@H](CC(C)C)C(=O)N[C@@H](CC(N)=O)C(=O)N[C@@H](C)C(=O)N[C@@H](Cc1ccc(O)cc1)C(=O)N[C@@H](CC(C)C)C(N)=O)C(C)C)C(C)C)C(C)C	–	zebrafish embryos	1 h, 4, 28, 52 hpf	–	acute toxic concentration	5 to 25 µg/mL
CC[C@H](C)C(=O)N1CCC(NC(=O)Nc2ccc(OC(F)(F)F)c(F)c2)CC1	–	healthy volunteers	oral, 2 mg single dose	–	subjects with insomnia TEAE	0%
Cc1ccnc(-c2cc(C)ccn2)c1.O.[C-]#[O+].[C-]#[O+].[C-]#[O+].[Re+]	RP-HPLC C18 column, refers to: aqua complex	MeCN:water 40:60, 0.1% TFA	isocratic elution	–	capacity factor	3.3
CC(C)[C@H](NC(=O)CNC(=O)[C@H](CCC(N)=O)NC(=O)[C@H](C)N)C(=O)O	severe intensity	human	20 mg/kg, 3 days, thrice daily dosing	–	subjects with adverse events	0%
C[C@H]1N=C(c2ccccc2F)c2cc(Br)ccc2-n2cnc(C(=O)NCCS(=O)(=O)O)c21	–	Swiss Webster mouse	oral, 750 µg of parent drug, 0 to 48 h	relative to: dose	excretion in urine and feces	2.9 ± 0.8%

Repeated from above:
Structure (SMILES)	assay	test system	conditions	scale	endpoint	result
CC(C)[C@H](NC(=O)CNC(=O)[C@H](CCC(N)=O)NC(=O)[C@H](C)N)C(=O)O	–	healthy male volunteers	intravenous infusion, dose not given, experimental endotoxaemia, all doses	–	tolerability	not toxic
